Measurements collected from several papers.
Protocols differ between the studies behind these lines.
BRD4 BD1: Bromodomain-containing protein 4, BD1 (BRD4, Homo sapiens, UniProt O60885)
BRD4 BD2: Bromodomain-containing protein 4, BD2 (BRD4, Homo sapiens, UniProt O60885)

Cc1sc2c(c1C)C(c1ccc(Cl)cc1)=N[C@@H](CC(=O)NCCN(C)CCCCNC(=O)CCCCOc1cccc3c1C(=O)N([C@H]1CCC(=O)NC1=O)C3=O)c1nnc(C)n1-2
DC50 (Bromodomain-containing protein 4, long isoform (BRD4, Homo sapiens, UniProt O60885); degrader, Western blot, item: BRD4 long isoform; MV4-11): 27.9 nM

O=C1CCCN1c1cccc(NS(=O)(=O)c2cc(Br)ccc2Br)c1
IC50 (BRD4 BD1; binding, differential scanning fluorimetry): 43700 nM

Cc1ncsc1-c1ccc2c(c1)OCCOCCOC[C@@H](NC(=O)C[C@@H]1N=C(c3ccc(Cl)cc3)c3c(sc(C)c3C)-n3c(C)nnc31)COCCOCCOCC(=O)N[C@@H](C(C)(C)C)C(=O)N1C[C@H](O)C[C@H]1C(=O)NC2
Kd (BRD4 BD2; binding, ITC): 213 nM

Cc1sc2c(c1C)C(c1ccc(Cl)cc1)=N[C@@H](CC(=O)NCC(=O)N1CCC3(CCC(C(=O)N4CCN(C(=O)c5cc(Cc6n[nH]c(=O)c7ccccc67)ccc5F)CC4)CC3)CC1)c1nnc(C)n1-2
EC50 (BRD4 (Homo sapiens, UniProt O60885); target engagement, HiBiT dBET6 competition; Jurkat HiBiT-tagged cells): 1390 nM

O=C1CCCN1c1cccc(NS(=O)(=O)c2c(F)cccc2F)c1
IC50 (BRD4 BD1; binding, differential scanning fluorimetry): 21100 nM

Cn1cc(-c2cc(N3CCCCS3(=O)=O)ccc2N[C@H]2CC[C@](C)(O)CC2)c2cc[nH]c2c1=O
IC50 (BRD4 BD2; cell-free assay, TR-FRET): 4.92 nM

COc1cc(-c2cc(C(C)=O)n3ccccc23)c(OC)cc1Cn1ccnc1
IC50 (BRD4 BD1; inhibitor): 16000 nM

O=C1CCCN1c1cccc(NS(=O)(=O)c2cccc(Br)c2)c1
IC50 (BRD4 BD1; binding, differential scanning fluorimetry): 41500 nM

Cc1ncsc1-c1ccc(CNC(=O)[C@@H]2C[C@@H](O)CN2C(=O)[C@@H](NC(=O)COCC(C)(COCCOCCOCCNC(=O)C[C@@H]2N=C(c3ccc(Cl)cc3)c3c(sc(C)c3C)-n3c(C)nnc32)COCCOCCOCCNC(=O)C[C@@H]2N=C(c3ccc(Cl)cc3)c3c(sc(C)c3C)-n3c(C)nnc32)C(C)(C)C)cc1
Kd (Bromodomain-containing protein 4, short isoform (BRD4, Homo sapiens, UniProt O60885); binding, BROMOscan; full-length protein): 0.083 nM

Cc1cc2c(cc1N)n(C)c(=O)n2C
IC50 (BRD4 BD1): > 33300 nM

CC(=O)N1c2ccc(-c3ccc(CNC(=O)c4cn5cc(-c6cnc(N)nc6)nc(N6CCOCC6)c5n4)cc3)cc2CC[C@@H]1C
Kd (BRD4 BD2; binding, competition with immobilised ligand): 0.89 nM

COc1cc(OC)c2c(=O)cc(-c3cc(C)c(OCCCN4CCN(C)CC4)c(C)c3)oc2c1
IC50 (BRD4 BD2; cell-free assay, TR-FRET): 87 nM

Cc1nc(S(=O)(=O)Nc2cc3c(cc2Oc2cccc(COCC(C)C)c2)n(C)c(=O)n3C)cn1C
IC50 (BRD4 BD2): > 20000 nM

Repeated from above:
Cc1cc2c(cc1N)n(C)c(=O)n2C
IC50 (BRD4 BD1): > 33300 nM
